# Experimental data collected from several papers.
# A part holds a random share of what one study measured.
# Chain of UniProt O14920 (whole entry, looked up): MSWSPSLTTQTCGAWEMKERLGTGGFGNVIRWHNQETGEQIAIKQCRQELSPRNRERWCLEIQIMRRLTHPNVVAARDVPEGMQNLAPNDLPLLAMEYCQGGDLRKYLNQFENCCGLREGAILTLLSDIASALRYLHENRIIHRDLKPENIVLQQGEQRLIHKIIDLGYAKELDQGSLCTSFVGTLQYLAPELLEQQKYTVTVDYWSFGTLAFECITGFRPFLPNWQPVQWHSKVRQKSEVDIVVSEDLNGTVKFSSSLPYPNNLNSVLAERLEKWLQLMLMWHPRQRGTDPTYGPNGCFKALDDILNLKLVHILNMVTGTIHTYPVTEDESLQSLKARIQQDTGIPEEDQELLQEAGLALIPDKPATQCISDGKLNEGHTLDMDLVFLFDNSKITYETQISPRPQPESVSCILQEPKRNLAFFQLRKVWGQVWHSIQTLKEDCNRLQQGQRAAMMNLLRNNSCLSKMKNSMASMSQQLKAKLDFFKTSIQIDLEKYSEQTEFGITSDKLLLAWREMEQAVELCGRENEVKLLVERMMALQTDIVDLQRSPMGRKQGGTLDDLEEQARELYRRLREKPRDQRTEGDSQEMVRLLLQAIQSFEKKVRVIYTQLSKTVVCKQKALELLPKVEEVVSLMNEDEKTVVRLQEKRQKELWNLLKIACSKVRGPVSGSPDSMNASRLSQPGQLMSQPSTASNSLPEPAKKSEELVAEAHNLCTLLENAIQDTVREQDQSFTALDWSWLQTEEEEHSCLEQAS
# Chain of UniProt Q96Q40 (whole entry, looked up): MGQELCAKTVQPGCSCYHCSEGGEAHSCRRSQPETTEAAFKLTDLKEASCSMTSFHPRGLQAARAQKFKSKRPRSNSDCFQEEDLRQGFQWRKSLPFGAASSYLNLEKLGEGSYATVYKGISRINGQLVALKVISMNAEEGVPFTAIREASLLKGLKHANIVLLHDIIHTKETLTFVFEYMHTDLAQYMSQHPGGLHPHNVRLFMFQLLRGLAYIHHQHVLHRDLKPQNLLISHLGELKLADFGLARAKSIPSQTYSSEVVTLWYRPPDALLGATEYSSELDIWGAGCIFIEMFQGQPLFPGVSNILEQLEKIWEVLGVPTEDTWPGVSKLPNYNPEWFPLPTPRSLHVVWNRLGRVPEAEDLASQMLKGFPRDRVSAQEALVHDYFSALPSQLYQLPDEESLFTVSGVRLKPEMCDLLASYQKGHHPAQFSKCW
# Chain of UniProt P49760 (whole entry, looked up): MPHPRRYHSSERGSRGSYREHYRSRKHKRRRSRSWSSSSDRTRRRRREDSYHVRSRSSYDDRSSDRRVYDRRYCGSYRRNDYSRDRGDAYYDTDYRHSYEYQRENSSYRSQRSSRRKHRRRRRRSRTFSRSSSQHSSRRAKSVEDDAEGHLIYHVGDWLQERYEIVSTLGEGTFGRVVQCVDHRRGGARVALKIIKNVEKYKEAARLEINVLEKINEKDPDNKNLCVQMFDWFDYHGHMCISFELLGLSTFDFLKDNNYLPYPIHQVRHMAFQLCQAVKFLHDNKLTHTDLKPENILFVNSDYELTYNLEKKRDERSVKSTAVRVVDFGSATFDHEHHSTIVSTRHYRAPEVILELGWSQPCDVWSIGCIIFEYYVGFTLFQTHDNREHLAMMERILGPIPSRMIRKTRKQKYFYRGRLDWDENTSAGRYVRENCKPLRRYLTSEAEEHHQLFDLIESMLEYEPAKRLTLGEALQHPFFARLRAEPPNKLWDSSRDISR
# Chain of UniProt O75417 (whole entry, unmodified, looked up): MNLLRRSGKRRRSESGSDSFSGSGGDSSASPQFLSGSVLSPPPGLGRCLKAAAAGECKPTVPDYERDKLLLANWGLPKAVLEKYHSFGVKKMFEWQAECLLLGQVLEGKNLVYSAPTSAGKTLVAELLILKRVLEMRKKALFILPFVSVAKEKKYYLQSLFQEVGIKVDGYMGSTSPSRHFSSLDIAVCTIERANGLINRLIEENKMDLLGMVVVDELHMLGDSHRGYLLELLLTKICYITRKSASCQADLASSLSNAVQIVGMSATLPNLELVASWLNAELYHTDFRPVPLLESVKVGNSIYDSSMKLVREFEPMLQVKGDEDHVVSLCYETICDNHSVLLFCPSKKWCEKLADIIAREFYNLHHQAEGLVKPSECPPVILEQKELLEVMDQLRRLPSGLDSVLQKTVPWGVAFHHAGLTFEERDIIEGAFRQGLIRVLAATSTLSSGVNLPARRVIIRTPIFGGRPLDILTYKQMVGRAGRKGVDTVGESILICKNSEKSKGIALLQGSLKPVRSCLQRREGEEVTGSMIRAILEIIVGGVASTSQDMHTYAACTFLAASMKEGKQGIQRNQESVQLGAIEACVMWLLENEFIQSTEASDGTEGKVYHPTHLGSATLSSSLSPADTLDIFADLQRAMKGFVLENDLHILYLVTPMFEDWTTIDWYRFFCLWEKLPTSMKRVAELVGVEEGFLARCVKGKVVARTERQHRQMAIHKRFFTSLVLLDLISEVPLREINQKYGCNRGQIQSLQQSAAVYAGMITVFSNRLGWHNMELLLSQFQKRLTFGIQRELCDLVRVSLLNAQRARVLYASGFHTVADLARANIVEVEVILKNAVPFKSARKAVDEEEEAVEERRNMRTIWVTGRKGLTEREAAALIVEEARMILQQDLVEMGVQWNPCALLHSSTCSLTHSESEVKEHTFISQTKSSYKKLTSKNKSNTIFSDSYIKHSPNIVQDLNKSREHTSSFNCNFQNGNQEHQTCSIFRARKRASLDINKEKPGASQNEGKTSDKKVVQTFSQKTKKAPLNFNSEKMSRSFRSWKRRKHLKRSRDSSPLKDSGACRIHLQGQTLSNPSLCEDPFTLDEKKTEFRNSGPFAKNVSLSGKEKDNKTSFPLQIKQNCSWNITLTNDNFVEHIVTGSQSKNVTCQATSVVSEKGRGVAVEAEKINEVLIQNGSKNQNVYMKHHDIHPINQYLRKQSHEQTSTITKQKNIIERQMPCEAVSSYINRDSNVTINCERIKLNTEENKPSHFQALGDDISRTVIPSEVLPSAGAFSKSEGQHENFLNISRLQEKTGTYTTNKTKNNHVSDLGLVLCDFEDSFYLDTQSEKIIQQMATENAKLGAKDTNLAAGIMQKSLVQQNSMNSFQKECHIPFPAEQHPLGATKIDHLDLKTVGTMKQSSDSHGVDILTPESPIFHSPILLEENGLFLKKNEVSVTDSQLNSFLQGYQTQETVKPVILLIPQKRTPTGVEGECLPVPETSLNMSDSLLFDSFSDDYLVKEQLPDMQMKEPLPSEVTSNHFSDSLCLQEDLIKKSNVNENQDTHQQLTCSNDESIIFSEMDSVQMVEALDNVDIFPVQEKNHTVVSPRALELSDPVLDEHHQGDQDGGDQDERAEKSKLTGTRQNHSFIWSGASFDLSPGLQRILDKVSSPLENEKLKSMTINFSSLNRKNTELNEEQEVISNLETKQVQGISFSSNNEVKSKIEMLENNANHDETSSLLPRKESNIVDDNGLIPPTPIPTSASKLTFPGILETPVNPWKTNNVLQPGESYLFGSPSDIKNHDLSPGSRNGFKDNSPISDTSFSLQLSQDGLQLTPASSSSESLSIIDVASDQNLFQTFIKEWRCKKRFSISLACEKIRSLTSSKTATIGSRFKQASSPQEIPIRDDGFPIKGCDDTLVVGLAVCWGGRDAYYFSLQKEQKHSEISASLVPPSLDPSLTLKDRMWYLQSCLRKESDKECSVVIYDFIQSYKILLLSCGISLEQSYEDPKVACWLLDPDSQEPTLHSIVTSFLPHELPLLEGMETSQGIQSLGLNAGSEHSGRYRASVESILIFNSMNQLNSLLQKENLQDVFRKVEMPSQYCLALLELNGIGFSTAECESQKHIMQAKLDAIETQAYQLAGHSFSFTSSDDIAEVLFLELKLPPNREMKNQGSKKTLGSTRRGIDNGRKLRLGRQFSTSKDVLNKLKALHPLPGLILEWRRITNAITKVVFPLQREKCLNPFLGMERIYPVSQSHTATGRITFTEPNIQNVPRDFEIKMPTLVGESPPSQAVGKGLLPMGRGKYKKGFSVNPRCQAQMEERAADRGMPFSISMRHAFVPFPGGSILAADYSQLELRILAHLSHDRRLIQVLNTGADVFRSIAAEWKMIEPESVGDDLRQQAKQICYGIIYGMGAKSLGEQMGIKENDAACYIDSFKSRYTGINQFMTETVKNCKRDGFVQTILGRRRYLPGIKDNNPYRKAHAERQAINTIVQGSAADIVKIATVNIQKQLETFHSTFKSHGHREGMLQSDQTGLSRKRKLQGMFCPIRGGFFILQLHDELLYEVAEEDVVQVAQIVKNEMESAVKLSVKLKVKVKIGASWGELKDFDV
# Chain of UniProt Q99759 (whole entry, looked up): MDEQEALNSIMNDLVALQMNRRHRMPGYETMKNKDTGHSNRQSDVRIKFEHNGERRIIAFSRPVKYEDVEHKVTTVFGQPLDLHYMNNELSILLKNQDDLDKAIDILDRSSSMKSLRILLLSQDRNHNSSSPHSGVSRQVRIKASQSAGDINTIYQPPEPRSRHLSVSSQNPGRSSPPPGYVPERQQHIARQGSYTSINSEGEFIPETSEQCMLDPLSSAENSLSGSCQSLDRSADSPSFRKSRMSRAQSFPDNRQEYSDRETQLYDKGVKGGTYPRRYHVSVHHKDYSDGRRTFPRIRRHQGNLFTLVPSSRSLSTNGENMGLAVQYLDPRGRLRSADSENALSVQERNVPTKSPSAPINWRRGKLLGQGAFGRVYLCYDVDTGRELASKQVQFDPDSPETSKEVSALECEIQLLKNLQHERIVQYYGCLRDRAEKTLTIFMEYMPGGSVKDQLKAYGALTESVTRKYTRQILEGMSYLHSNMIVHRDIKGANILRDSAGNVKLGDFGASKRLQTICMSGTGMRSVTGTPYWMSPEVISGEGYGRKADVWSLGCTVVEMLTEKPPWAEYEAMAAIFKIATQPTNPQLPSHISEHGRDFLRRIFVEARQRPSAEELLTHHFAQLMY

# Block 1
# Read-out: AlphaScreen signal
# Technique: AlphaScreen counter screen
# Matrix: His6 peptide without bromodomain
# Concentration: 50 µM
# Setting: assay interference check
Compound,inhibition
N#Cc1c(-c2ccccc2)cc(-c2cc(Br)ccc2O)[nH]c1=O,-5.75%
COc1ccc(CCNc2nc(N)nc3[nH]cnc23)cc1OC,48.7%
Cc1[nH]c(/C=C2\C(=O)Nc3ccc(S(=O)(=O)Cc4c(Cl)cccc4Cl)cc32)c(C)c1C(=O)N1CCC[C@@H]1CN1CCCC1,70.2%
COc1cc(O)c2c(c1)/C=C/C[C@H](O)[C@H](O)C(=O)/C=C\C[C@H](C)OC2=O,17.8%
Nc1nccc(-c2c(-c3ccc(F)cc3)ncn2C2CCCCC2)n1,19.5%
COc1ncc(-c2ccc3nccc(-c4ccnnc4)c3c2)cc1NS(=O)(=O)c1ccc(F)cc1F,17.9%

# Block 2
# SMILES: CNCc1ccccc1-c1csc([C@@H](C)Nc2nc(C)nc3cc(OC)c(OC)cc23)c1
# Read-out: cell-free assay
# Technique: competition with immobilised ligand
# Concentration: 1 µM
target,remaining binding [%]
"RIPK4 (Homo sapiens, UniProt P57078)",91
"CSNK2A1 (Homo sapiens, UniProt P68400)",83
"CDK15 (Homo sapiens, UniProt Q96Q40)",100
"IKBKB (Homo sapiens, UniProt O14920)",94
"EGFR (Homo sapiens, UniProt P00533, del747-750/T751S)",50
"CLK2 (Homo sapiens, UniProt P49760)",98
"MAP3K3 (Homo sapiens, UniProt Q99759)",83

# Block 3
# Target: Inhibitor of nuclear factor kappa-B kinase subunit beta (IKBKB, Homo sapiens, UniProt O14920)
# Read-out: enzyme activity
# Action: inhibitor
# Concentration: 0.5 µM
# Baseline: control
SMILES,remaining activity
COc1ccc(OC)c2c(=S)c3ccccc3[nH]c12,103%
O=C1NC(=O)C(c2cn(CCCO)c3ncccc23)=C1c1cnccn1,87.3%
Nc1ccc2ncnc(NCCc3ccc(Oc4ccccc4)cc3)c2c1,100%
Nc1[nH]nc2nc3ccccc3nc12,102%
COc1ccc(C(=O)Nc2sc3c(c2C(N)=O)CCCC3)cc1OC,87.6%
Nc1ncnc2n[nH]c(Nc3ccc(F)cc3)c12,105%
COc1cc2ncnc(Nc3ccc(Oc4ccccc4)cc3)c2cc1OC,106%
C#Cc1cccc(Nc2ncnc3cc(OCCOC)c(OCCOC)cc23)c1,83.5%
O=C(Nc1cccc(Nc2cc(Nc3cccc(C(F)(F)F)c3)ncn2)c1)C1CC1,100%
OCC(O)CCON=C1C(c2c(O)[nH]c3ccccc23)=Nc2ccccc21 (stereo not shown),90.5%
Cc1cccc(-c2[nH]c(C(C)(C)C)nc2-c2ccc3c(c2)OCO3)n1,105%
Cn1sc(=O)n(Cc2ccccc2)c1=O,112%
Cc1nc(-c2ccccc2)c(-c2ccncc2)o1,105%
O=C(O)c1ccc2c3c1cccc3c(=O)n1c3ccccc3nc21,109%
Cn1c2ccccc2c2c3c(c4c5ccccc5n(CCC#N)c4c21)CNC3=O,90.4%
N#CC(C#N)=C(N)/C(C#N)=C/c1ccc(O)cc1,102%
NCCNc1ncc(C(N)=O)c(Nc2cccc(C(F)(F)F)c2)n1,101%
CCOC(=O)c1c(C)[nH]c(/C=C2\C(=O)Nc3ccccc32)c1C,101%
Oc1ccc(-c2nc(-c3ccncc3)c(-c3ccc(F)cc3)[nH]2)cc1,110%
O=C1NC(=O)C(c2cn(CCCn3ccnc3)c3ccccc23)=C1Nc1ccccc1,110%
Cc1ccc(Nc2nccc(N(C)c3ccc4c(C)n(C)nc4c3)n2)cc1S(N)(=O)=O,86.9%
CNC(=O)c1cc(Oc2ccc(NC(=O)Nc3ccc(Cl)c(C(F)(F)F)c3)cc2)ccn1,88.3%
CC(C)[C@H](CO)Nc1nc(Nc2cc(N)cc(Cl)c2)c2ncn(C(C)C)c2n1,104%
COc1cc2nccc(Oc3ccc(NC(=S)NC(=O)c4ccccc4C)cc3)c2cc1OC,99.4%

# Block 4
# SMILES: CC(C)n1cnc(-c2ccc(F)cc2)c1-c1ncc(C(=O)Nc2ccc(N3CCN(C)CC3)cc2)[nH]1
# Technique: Phase 2a trial
# Species: idiopathic pulmonary fibrosis patients
item,route,dose,setting,patients with adverse events
blood creatine phosphokinase increased,,60 mg once daily,grade 5 maximum intensity,0%
oral herpes,oral,30 mg once daily,grade 4 maximum intensity,0%
blood bilirubin increased,,30 mg once daily,grade 2 maximum intensity,0%
blood bilirubin increased,,60 mg once daily,grade 2 maximum intensity,0%
weight increased,,dose not given,"grade 5 maximum intensity, all arms",0%
respiratory tract infection,,60 mg once daily,grade 3 maximum intensity,0%
chest discomfort,,dose not given,"grade 5 maximum intensity, all arms",0%

# Block 5
# Cell line: mouse MPNST tumor cells
# Technique: high-content immunofluorescence imaging
# Item: nuclear SOX9
# Concentration: 10 µM
# Time: 12 h
# Setting: mean of 2 replicates
# Baseline: DMSO control
# Reading: higher = more nuclear SOX9
SMILES,nuclear SOX9 intensity
CC(C)NCC(O)c1ccc(NS(C)(=O)=O)cc1 (stereo not shown),138 % of DMSO
CC(C)(C)NC[C@H](O)COc1cccc2c1CCCC2=O,103 % of DMSO
COc1cccc(NC(=O)/C=C/c2ccc(Cl)cc2)c1,125 % of DMSO
CC(CC(=O)OC(C)(C)C)NC(=O)C1=NOC(C(O)(C(F)(F)F)C(F)(F)F)C1 (stereo not shown),126 % of DMSO
CCOC(=O)N1c2ccc(C(F)(F)F)cc2[C@@H](N(Cc2cc(C(F)(F)F)cc(C(F)(F)F)c2)C(=O)OC)C[C@H]1CC,117 % of DMSO
CC(C)c1nc(CN(C)C(=O)N[C@H](C(=O)N[C@@H](Cc2ccccc2)C[C@H](O)[C@H](Cc2ccccc2)NC(=O)OCc2cncs2)C(C)C)cs1,116 % of DMSO
COc1ccc(C(Cl)=C(c2ccc(OC)cc2)c2ccc(OC)cc2)cc1,112 % of DMSO

# Other studies, line by line
SMILES,target,action,concentration,quantity,result
CNCCC[C@]12CC[C@H](c3ccccc31)c1ccccc12,"DNA polymerase theta, ATPase domain (POLQ, Homo sapiens, UniProt O75417)",inhibitor,77 µM,remaining activity,101%
